Experimental data from different studies.
Every numbered part comes from another study and shows a few of its results, in no order. Substitutions count along the parent as printed.

Sample 1
Target: RING finger protein unkempt homolog, zinc fingers 1-6, SBP tag (UNK, Homo sapiens, UniProt Q9C0B0, residues 30-357)
Sequence of UniProt Q9C0B0 (30-357, looked up): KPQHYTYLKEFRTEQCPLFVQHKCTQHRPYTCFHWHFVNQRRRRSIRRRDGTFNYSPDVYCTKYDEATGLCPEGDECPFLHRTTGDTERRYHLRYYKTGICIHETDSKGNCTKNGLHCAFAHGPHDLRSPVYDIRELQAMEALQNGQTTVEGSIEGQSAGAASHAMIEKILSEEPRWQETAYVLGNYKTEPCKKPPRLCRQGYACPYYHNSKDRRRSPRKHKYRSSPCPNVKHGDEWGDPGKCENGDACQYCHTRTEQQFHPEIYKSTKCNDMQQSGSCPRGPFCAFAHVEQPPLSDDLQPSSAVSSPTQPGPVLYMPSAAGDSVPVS
Method: RNA Bind-n-Seq
Molecule type: RNA
Sample: in vitro
Tested at: 100 nM
Setting: RNA with constant flanks, vertebrate orthologous sites, ends assumed
Relative to: input RNA pool
Direction: higher = stronger binding
Shared flanks, not repeated: GGGAGUUCUACAGUCCGACGAUC … CAACAGAGGAUUGAGCAUCA
| Oligonucleotide | bound/input enrichment [ratio] |
| --- | --- |
| ACCGUAGCGAGAGCCAAGCAGGUGGCAUUGUCUUUUUCUUUUGUAAAUGUAAAAAAUAAUUCGAUCCAGACUUUCCUUCUUUGAUUUUAAAAAUAAAAAUACCUCAGUGCUGUUUCCCAG | 0.501 |
| AUGUUCUUAGAAAAGAAUUCUCAUUCAUCUUCCCAUAGUGAAAUUCUCUAGCACUGUAUUUAGAUUCUGGAUUUUUAUAAUUCAUGCUUAAUGUAUUAGACAUUUUUAGCCCAUAAUUAA | 1.1 |
| UAAAGUUAAUCAGUUGACUUGUAUUCUGAUGAUGUAACAUUGUGUAGCUUUUGUAUAAAAACAUGAAUUGGAAAUCGUCCAAAUAUCAAGCUAUUUUCUUGCUUUAAAGUUACUGAUGUG | 0.164 |
| CAUUGUAUCCUGCUGUAUAAUAAACAUUCUUAUGCAUUUAUCAAAUGUUGAUAAAAUGUUAGCCCUUAACCACUUUUAUAUGUUUUAAAUUUUUAAAUUCAAGUGUACCUUCCAUAACAU | 1.21 |
| UUUUAUUGUACUUGGAAAAAUCUUAGUUUUAAACUAGUCACGGUGAUAACUGGUCUGUGCUAGUGGAAUCAUUUACUCUUACCUUUUAAAUUAUCUUCUCUGUCUGAUACCUGAAACCGU | 1.01 |
| UUACAGUCAUUGAUGGACUCUAUUUUUUUAUUAUUACUUGGACCUUGGUCGUUUUUAUACUAGCAAAAUGUCUUGUUUUAAUUUGUGUUUUUGGGGGGGUGGGAGUGAACUUGCUGAUUC | 1.49 |
| UAUUCAAAAUCUAAAUAAAUUGCUCUGAAGUCAGAAAGUUCAUUUUGGAGGAUCUGACCAUAGGCAGGUGUUGCCAUAUUGUUUUGUUCUGUUUUUUAAACUUGUGUGCUAUGUCCAGAG | 0.333 |
| UGUUGGUGCAGACUGCUCUCUGUCCCCAGUGCCCAUUGUCCCUUUCACACCGACUGUCCCUAGUUAUAGGAAUUUAAUAUUUUUAAAAGUUUUACAUUGCUGUAUAUUCAAAGAUUUGUU | 0.955 |
| GUUGUGAUCCUUUUAACAUACACAAAAAGCUUGCAAAGAAAAAUUUGCAUGCAAUUGACUUAGAUGAUGCCACUUUCCUAAGUGCCAAGUUUGGAAGACAGCUUGUACCUGGUUGGAAGC | 0.538 |
| UGCACUAGUGCUCUUCUGUGGAAGAGAUGAAUUGUGGAAAACUGUCUCCUUUUUAUAGAUUACUUUGUUUCUAAAUUAUGACCAAAAAUAUUUUGCUAUUUCUUUCUUUAUAUAUGGAAU | 1.13 |
| CAUAAUCACUCUAAUUGUAAUCUGACAAAGUGUAACAUUGUGUAGCCUUUUUGUAUAAAAUAGACAAAUAGAAACGGUCCAAUUGGUUUCCUUUUUAAUAUGCUUAAAAUAAGCAGGUGG | 1.13 |

Sample 2
Target: Histone acetyltransferase KAT6A, winged helix 1, GST fusion (KAT6A, Homo sapiens, UniProt Q92794, residues 1-85)
Method: protein binding microarray
Molecule type: double-stranded DNA, one strand shown
Sample: in vitro
Tested at: not given
Setting: 8-mer, flanks averaged, mean of 2 arrays, mostly near background
Relative to: not given
Direction: higher = stronger binding
Construct (chain): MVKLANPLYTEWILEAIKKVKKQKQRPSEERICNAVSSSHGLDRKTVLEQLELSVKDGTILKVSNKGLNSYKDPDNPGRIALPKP
| Oligonucleotide | E-score |
| --- | --- |
| AGCTTGTG | -0.224 |
| ATGGTTCA | -0.135 |
| AGCAGCGG | 0.14 |
| ACTCCGAC | 0.111 |
| CGGCACAC | 0.206 |
| AATATTAC | 0.115 |
| CGGTGACG | 0.0717 |
| CGCAATAA | 0.16 |
| CTATTAAG | -0.17 |

Sample 3
Target: CCNE1, cyclin fold, Cln2 fusion (human)
Method: yeast growth competition, sequencing
Sample: yeast
Setting: strong parent motif
Relative to: not given
Direction: higher = stronger binding
Starting sequence: INSM1 docking peptide (human); PKAIRKLHFEDEV
| Substitution | normalised enrichment score |
| --- | --- |
| K2N | 4.67 |
| K6I | 3.2 |
| R5G | -0.0933 |
| I4G | 0.277 |
| D11Q | 2.76 |
| E12Y | 3.75 |
| E12C | 4.57 |
| E12D | 4.79 |
| R5P | 0.0865 |

Single results of other studies
| Molecule | target | assay | test system | conditions | how to read | quantity | value |
| --- | --- | --- | --- | --- | --- | --- | --- |
| PhoQ, residues 284 288 289 292 302 303 SVHLDV | PhoP, residues 12 14 15 18 19 VQALL (Escherichia coli, UniProt P23836) | Sort-seq, item: YFP reporter | E. coli | PhoQ-PhoP variant library, added: 10 µM Mg2+ | relative to: high Mg2+ state, higher = stronger signaling | fold induction | 17.6 |

For quick reference, copied from above (sample 3):
| Substitution | normalised enrichment score |
| --- | --- |
| E12Y | 3.75 |
| R5P | 0.0865 |
